# Experimental data from different studies.
# Numbered parts are unrelated; each lists some results of a single study. Changes are numbered by the printed parent chain.

# Study 1 — method: RNAcompete; molecule type: RNA; sample: in vitro; tested at: 20 nM; setting: 7-mer, probes averaged, single round; baseline: mean of 7-mers; reading: higher = stronger binding
# Target: PABPC1L2, full length, GST fusion (mouse, UniProt A0ABA7IW68)
# Target sequence (chain): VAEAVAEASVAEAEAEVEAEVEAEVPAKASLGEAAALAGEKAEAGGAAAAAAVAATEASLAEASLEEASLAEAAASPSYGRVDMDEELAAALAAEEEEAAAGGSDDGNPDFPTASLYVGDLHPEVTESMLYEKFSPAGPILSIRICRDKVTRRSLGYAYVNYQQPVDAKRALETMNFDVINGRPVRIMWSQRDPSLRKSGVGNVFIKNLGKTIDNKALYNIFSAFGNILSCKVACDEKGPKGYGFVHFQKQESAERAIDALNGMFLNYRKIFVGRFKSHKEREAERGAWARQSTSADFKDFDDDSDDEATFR
Oligonucleotide,7-mer Z-score
CUGUGGC,-0.171
AGGAAGG,0.206
UCACUGU,-0.367
CCAUCGG,-0.249
GGGCUUG,0.0805
GAAGUAC,-0.177
GACAUGC,-0.0554
UUGUACG,-0.224
GUUCAAC,-0.24
GAUUAGG,0.0279
AUCCAGG,-0.213
CAUGAUA,0.0859
ACGAAAG,0.363
GUUCGGC,-0.327
GCCAUAG,-0.157
AAUUCAC,0.0732
ACCAUGU,-0.0718
AUAGUAG,-0.166
CUUCAGG,-0.244
UCGGGGU,-0.151

# Study 2 — method: universal PBM; molecule type: double-stranded DNA, one strand shown; sample: in vitro; tested at: 600 nM; reading: higher = stronger binding
# Target: Sal-like protein 4, full length isoform A (SALL4, Homo sapiens, UniProt Q9UJQ4, residues 1-1053)
# Chain of UniProt Q9UJQ4 (whole entry, looked up): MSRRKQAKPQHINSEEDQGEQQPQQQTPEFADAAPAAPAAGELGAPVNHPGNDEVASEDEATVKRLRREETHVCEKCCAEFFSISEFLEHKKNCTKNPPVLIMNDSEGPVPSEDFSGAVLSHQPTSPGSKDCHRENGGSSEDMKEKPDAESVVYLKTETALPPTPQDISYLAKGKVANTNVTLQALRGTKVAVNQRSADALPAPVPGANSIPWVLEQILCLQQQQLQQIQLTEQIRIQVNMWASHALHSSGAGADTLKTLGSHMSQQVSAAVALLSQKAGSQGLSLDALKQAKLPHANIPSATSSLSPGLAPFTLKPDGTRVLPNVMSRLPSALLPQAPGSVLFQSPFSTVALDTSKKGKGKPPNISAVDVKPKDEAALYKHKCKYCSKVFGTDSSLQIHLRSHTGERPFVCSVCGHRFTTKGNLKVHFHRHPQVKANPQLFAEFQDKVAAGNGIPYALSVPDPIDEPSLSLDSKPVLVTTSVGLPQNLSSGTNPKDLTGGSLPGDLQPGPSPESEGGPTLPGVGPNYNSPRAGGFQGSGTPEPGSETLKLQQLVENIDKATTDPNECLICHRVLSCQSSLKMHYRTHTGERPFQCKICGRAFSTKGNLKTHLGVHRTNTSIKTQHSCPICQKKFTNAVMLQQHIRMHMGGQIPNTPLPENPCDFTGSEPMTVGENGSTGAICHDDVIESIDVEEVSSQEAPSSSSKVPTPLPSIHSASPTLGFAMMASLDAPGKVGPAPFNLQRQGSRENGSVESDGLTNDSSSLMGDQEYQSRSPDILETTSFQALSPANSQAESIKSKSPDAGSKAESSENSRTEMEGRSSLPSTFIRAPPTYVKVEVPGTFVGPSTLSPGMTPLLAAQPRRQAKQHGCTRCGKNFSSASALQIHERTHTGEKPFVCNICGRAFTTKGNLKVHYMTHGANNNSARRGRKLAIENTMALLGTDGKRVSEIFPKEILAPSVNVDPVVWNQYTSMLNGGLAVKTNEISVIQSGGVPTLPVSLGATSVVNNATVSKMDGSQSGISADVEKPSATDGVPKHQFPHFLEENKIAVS
# Setting: 8-mer, flanks averaged, mean of replicates
Oligonucleotide,E-score
TGAAAGAA,0.258
AAATCCAG,0.0594
TCTGTCCA,0.0383
AAATATTC,0.415
CTCGCGGC,-0.348
AGTTGCAA,0.0767
GACCCTAC,-0.245
ACGCGGGC,-0.323
AGCGTAAT,0.177
GAATTAAC,0.168
CCTAAGTC,-0.272
GGCTACGA,-0.138
CCTTATAC,0.168
CGACTTCC,-0.136
GCAGCGCA,-0.268
AAGTAGAT,0.149
AATATGCG,0.252
ATCAGACG,-0.0735
TCCTACGA,-0.181

# Study 3 — method: RNA Bind-n-Seq; molecule type: RNA; sample: in vitro; tested at: 200 nM; setting: whole 134-nt RNA, ends assumed; with: 150 mM LiCl; baseline: input library; reading: higher = stronger binding; all molecules: 7-deaza-guanosine replaces G
# Target: Fragile X messenger ribonucleoprotein 1, C-terminal low-complexity region (Fmr1, Mus musculus, UniProt P35922)
# Constant ends, left off below: GGGAGUUCUACAGUCCGACGAUC … UGGAAUUCUCGGGUGUCAAGG
Oligonucleotide,log2 enrichment
CCUGUGCUACACAUCGUAUGUACCGAAUCGGGGAAAAAAGGGGAAAAAAGGGAAAAAAGGGAAAGUAUUAUGUUACGCCGUUCGGAUCUG,0.642
UGGCCCUGGUGGCAUGCGGGGAGGAAGAGGUGGCGUCAUGGAUCGUGGUGGUCCCGGUGGAAUGUUCAGAGGUGGCCGUGGUGGAGACAG,1.18
UGCAGGGUCUGGGUAGCAGCUGGGCUUCCAGCUUUCUCCUUGCACCUGACUUGGGCUUUUUUCUCCUCACAGGAUGGGCCUUGACGGCAU,-2.38
GCAGGAAGUAAAAACAAAUGGAAAUGCUUCGGAUAGUGGCAGGGGUGGGGGUUGCUAAGGAAAGGGUGGGAUGGGAGUGGGUAAAAAGUU,1.27
AGUCCUGUGCUACACAUCGUAUGUACCGAAUCGGGUUUUUGGGUUUUUGGGAAAGGGAAAGUAUUAUGUUACGCCGUUCGGAUCUGCACU,-1.37
GGUGAUGGUCAACAAGCCUCAACUGCCUCUGCUACAACUGCCAAGUUCCCCGCGUCCCACCCUCCUCUAGGUGCUCCAAGGGACCACCGG,1.02
CUCAAGUCCUGUGCUACACAUCGUAUGUACCGAAUCGGGUGGGGUGGGGUGGGAAAGUAUUAUGUUACGCCGUUCGGAUCUGCACUUCCA,-0.576
GCAGGAAGUAUAAACAAAUGGAAAUGCUUCGGAUAGUGGCAGGGGUGGGGGUUGCUAAGGAAAGGGUGGGAUGGGAGUGGGUAAAGAGUU,1.4
UGCCGUGCCGGGUGGACGGUCUGCUCGCCUGUCUGCGUGACGAAACUGAGGCACAAAGACGCGCUAUGCCAGCGGCGGGUAUAGCAAGGG,-2.67
CUGUGCUACACAUCGUAUGUACCGAAUCGGUUUUUUUGGGGUUUUUUUGGGUUUUUUUGGGAAAGUAUUAUGUUACGCCGUUCGGAUCUG,0.728

# Study 4 — method: RNA Bind-n-Seq; molecule type: RNA; sample: in vitro; tested at: not given; setting: RNA with constant flanks, ends assumed; baseline: input RNA pool; reading: higher = stronger binding
# Target: RING finger protein unkempt homolog, zinc fingers 1-6, GST-SBP tag (UNK, Homo sapiens, UniProt Q9C0B0, residues 30-357)
# Chain of UniProt Q9C0B0 (30-357, looked up): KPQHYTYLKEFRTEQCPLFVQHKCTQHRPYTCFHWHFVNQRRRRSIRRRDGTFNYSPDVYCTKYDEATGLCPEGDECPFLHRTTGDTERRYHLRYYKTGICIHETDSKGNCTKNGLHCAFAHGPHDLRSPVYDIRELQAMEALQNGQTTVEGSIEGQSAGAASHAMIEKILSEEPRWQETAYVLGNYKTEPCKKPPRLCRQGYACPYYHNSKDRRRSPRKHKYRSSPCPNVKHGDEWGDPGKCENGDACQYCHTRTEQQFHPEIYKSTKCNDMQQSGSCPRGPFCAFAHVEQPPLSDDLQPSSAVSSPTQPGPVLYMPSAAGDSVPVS
# Constant ends, left off below: GGGAGUUCUACAGUCCGACGAUC … CAACAGAGGAUUGAGCAUCA
Oligonucleotide,bound/input enrichment [ratio]
UAUGUUUACGGAGUCCUGUUUAGUUUGGCAGAAAGCAGAAAGAAAACUGAGAGACUUGCUUUCCGAAAGAACAGACUUCCACCAGAAUUUUCACCAGUGAUCAUUAAAGAAUGGGCAGCU,0.589
GAAAUAAAUGUGGAAGCUAAGCAAGUUAAGGAUAUCAUGAAAACACUCGAGAGCUUCAAACCCGACAUCACUUCUUUGCAAGCUGCACAACAUGAAUUUCCAGCUGCUGAAGGAGAAGUC,0.22
CUCCUGUCUCGAUUUACUCGAAAUGAGUUUAAUCUGGAAAGCAAGAGCACCAUUGGAGCCGAGUUUGCAACAAGAAGCAUCCAGGUUGAUGGAAAAACAAUAAAGGCACAGAUAUGGGAC,0.225
GUGUUGGUACAGAGUGCUCUGUACCAGUGCUCAUCAUCCCUUCUUCAUACCAACGGUCCCCCGUUACCGGAAUUUAAUAUUUUUAAAAGUUUUACAUUGCUGUAUAUUCAAAGAUUUGUU,1.7
UGCUUGGUGCUGAUUUGUGAACCCAUUCCUCACCCAUCAAAUAUUGAAAUUCCUUCCGACCGCAAGACUUUCCUCAGUCGACACAGCCUGGAUAUGAAAUUUUCUUAUUGUGAUGAAAGA,0.211
AGUGAUAUUCAUUUGGCAGAACAUCAUAAACAGGUGUUAUAUGAUGGGAAACUUGCAAGCCGCAUUGCCUUUACAUAUAAUGCUAAGGCCACUGAUGCUCAGCUCUGCCUGGAAUCAUCA,0.139
CCUGCGAUUGUUCAUAUAAACCACCAGCCAUACUUGGAAAGAGGAGAUGGUCCAAUUUGUCCCGUGCUGGCUCCUACCAGAGAGCUUGCGCAGCAGGUGCAGCAGGUGGCUGACGAUUAU,0.131
GUGGUGGCCAUAGGAACGCACUCAGGCAGGUGGUUUGUUCUGGAUGCAGAAACCAGAGAUCCCGUUUCUAUCCACACAGACGGGAAUGAACAGCUCUCUGUGAUGCGCUACUCAAUAGAU,0.175

# Study 5 — method: RNA Bind-n-Seq; molecule type: RNA; sample: in vitro; tested at: 365 nM; baseline: no-protein control; reading: higher = stronger binding
# Target: RNA binding protein fox-1 homolog 2, RRM domain, GST-SBP tag (RBFOX2, Homo sapiens, UniProt O43251-10, residues 100-194)
# Setting: natural RNA segment, single round, ends assumed
# Constant ends, left off below: GGGAGUUCUACAGUCCGACGAUC … UGGAAUUCUCGGGUGCCAA
# Residues (chain): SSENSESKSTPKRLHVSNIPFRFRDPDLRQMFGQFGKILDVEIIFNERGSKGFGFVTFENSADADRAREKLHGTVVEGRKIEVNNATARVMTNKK
Oligonucleotide,RBNS enrichment (R)
GAUAUAUUCCUUUACCUCACAUGACCCCAGCAACUGUGGUGGUAUCUAGAGGUGAAACAGGCAAGUGAAAUGGACACCUCUGCUGUGAAUGUUUUAGAGAAGGAAAUUCA,2.79
AACGCCUGUUACACACAAACUGUUGUGGGUUCCUGCCAGGCUUGAAGAAAAUGAUCUGAAUUUUUUCCUCCUUUUGGUUUUAUUUUGUUGGUUUAUUUUGUGUUUUCUUU,1.09
CACAGCACAGUUUCCUCCCUGAGCCCCAGCCGUGGGGAACAUCUGGAGUCAACAGAGUCACUGGGAACUGAGGCAGGAGUAUCAUCUGUGGGAGCUGGCUGCCCCACCCA,0.359
GACUCAAGAAAAUUAGACCACAAAUUUUGCAUUGUUCAUUGUAGCACUAUUGGUAAUAAAAUAACAAAUGUUUGUGCAUUUUUAUGUGAAGAUCCUUCUCGUAUUUCAUU,0.523
CCUGGCUUCGAGUUGGAACCCGGACACUUGCCCCUCACUGGUGUGGAUGGAAAUCUGCCUUUCGUGGGACCAAACAGGACUCCUUGGACGAUUAGUUCAGGUUGGGUUUG,0.409
GAUUGGUGGGCAGGUAGGGAAGACAUUGAGCAGACAGUGUCCGCUCAGUUGUCCUUCCCUCCCUUCCAAGGUCCCUCCCUCUUUCCAGGACAUCGCCCCCCCACCCCACC,0.158
CAUCUUAGAUUUGUCGAUACCUUCGAAAUUUGAUGGUUUCAUCCCAAAUGACUGCACUAUAUGUAUGCAUACGGCCACUUUUGAUUGCUGCGCCCCUUCUGAGUAGUCUU,0.798
AAUAUGAAUGGAUUAAAUGUUAAAGCUUUGGUGCCUGGAAACAAUAUCAAGUAACAAUAUGAUUAUUAUUUUUUUAUUCCCCCAAAGCGGGCUUGCUGCUUCACCCUUGG,2.22
GUUUUGGAAAACUAUAAGAAAUGCUUUGUUAAUGUGUGUAUUCCUAUGUAAAACACAUGGCUUUUCCUGUGUAUAUUUUUAAAAAUUAAAGAAAUGCACAUUUAAAAAGU,0.76
GAUCCCUACCCAUGGGAAUGCAGAGCCUUCUCCGCAUGUGUGCGUGCAGCUGUGUCUUAUGUAUUUAUAUGUAUGUCGCUCUUCAAAAGCAACCUAGUUUAUGGGGCAGC,0.817
AAGCUGCCCCCGGCUGCAGCCCAGGCCAUGGACAUGUGCACCAGUAUGUACCUGCAGGCAUGGGGGGGAGGGGGGCGUGUUUCUGGGCCUGCCCCAGACACUGCCCUUGG,0.849
GUUGACUGUCUCAGAGACUGUAAGCUCCCGGAGAGCAGGGUUGCUGUAAUGGGAAUGUUUAAGUGUUGUGUGCAAGAAAACAAAAUAAAUAUUUUGAUUUUCGUGAUUCU,1.78

# Study 6 — method: DHFR PCA, deep sequencing; sample: yeast; with: (+)-ABA 0.11 µM; baseline: wild-type fitted maximum; reading: higher = stronger binding
# Target: ABI1, truncated, D143A, DHFR fusion (Arabidopsis thaliana)
# Setting: methotrexate growth selection, single substitutions
# Parent: PYL1, truncated, DHFR fusion (Arabidopsis thaliana); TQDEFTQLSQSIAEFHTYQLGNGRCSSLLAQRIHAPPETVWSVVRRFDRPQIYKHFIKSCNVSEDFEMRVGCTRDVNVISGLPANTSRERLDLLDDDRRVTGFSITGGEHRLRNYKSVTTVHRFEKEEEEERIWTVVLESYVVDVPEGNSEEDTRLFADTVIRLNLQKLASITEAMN; partner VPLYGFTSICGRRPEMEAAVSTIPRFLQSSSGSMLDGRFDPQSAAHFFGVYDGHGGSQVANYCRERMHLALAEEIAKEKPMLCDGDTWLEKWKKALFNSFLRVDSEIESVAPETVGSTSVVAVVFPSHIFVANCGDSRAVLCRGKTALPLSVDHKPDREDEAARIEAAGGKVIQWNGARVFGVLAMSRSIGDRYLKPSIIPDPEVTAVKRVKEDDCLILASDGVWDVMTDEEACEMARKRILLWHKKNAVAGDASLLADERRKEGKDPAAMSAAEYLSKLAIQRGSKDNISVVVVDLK
Change,relative binding score [%]
R155S,0.525
Q51N,0.731
R113I,23.1
T86F,32.2
N165A,5.2
R111G,4.26
R24V,10.4
S104N,4.53
T106F,14.2
F66E,8.55
L29I,44.9
A158K,-16.3
V161G,-8.38
H55F,15.7
T135V,-4.72
R90Y,-8.83

# Repeated from above (study 2):
Oligonucleotide,E-score
CCTTATAC,0.168
GACCCTAC,-0.245
TGAAAGAA,0.258
AATATGCG,0.252
GCAGCGCA,-0.268
TCCTACGA,-0.181
CCTAAGTC,-0.272
CTCGCGGC,-0.348
AGTTGCAA,0.0767
GGCTACGA,-0.138
AAGTAGAT,0.149
